# Published values gathered from unrelated publications.
# ± marks the error that the study gave.
Compound,assay,system,conditions,how to read,endpoint,value
NCCCC(=O)OCC(=O)c1cc(F)c(O)cc1F.O=C(O)C(F)(F)F,"photolysis, measured: disappearance of compound",unbuffered water,,,quantum yield,0.22
Cc1cccc(C)c1OCC(N)c1ccccc1 (stereo not drawn),,human liver S9,"88 µM, 30 min, 37 °C",,metabolic rate,0.1 ± 0.01 nmol/min/mg of protein
Cn1c(=O)oc2ccc(-c3ccc(CC(C#N)NC(=O)C4CNCCCO4)c(F)c3)cc21 (stereo not drawn),,human,"oral, 40 mg once daily, treatment-related AE, multiple ascending dose",,ALT increased incidence,0%
CCCCCCc1ccc(Oc2ccccc2C#N)c(O)c1,,"CD-1 mice, plasma","subcutaneous, 100 mg/kg",,clearance,123 mL/min/kg
Cc1cc(C)c(S(=O)(=O)N(CC(=O)O)c2ccc(Nc3ccnc(N4CCCC4)n3)cc2)c(C)c1,,"HCT-116 xenograft mice, plasma","intraperitoneal, 100 mg/kg single dose",,clearance,29.9 mL/min/kg
C=C(C)C(=O)NCCCCCC(=O)N[C@@H](Cc1ccccc1)C(=O)N[C@@H](CCCCN)C(=O)N[C@@H](Cc1ccccc1)C(=O)N[C@@H](CC(C)C)C(=O)NCCCCCC(=O)N[C@@H](CCCCN)C(=O)N[C@@H](CCCCN)C(=O)N[C@@H](CCCCN)C(=O)N[C@@H](CCCCN)C(=O)N[C@@H](CCCCN)C(=O)N[C@@H](CCCCN)C(=O)N[C@@H](CCCCN)C(=O)N[C@@H](CCCCN)C(=O)N[C@@H](CCCCN)C(=O)N[C@@H](CCCCN)C(N)=O,MALDI-TOF MS,mouse serum,37 °C,,time to complete degradation,≤ 1 h
NS(=O)(=O)c1ccc(N2N=C(C(F)(F)F)CC2c2ccc(F)cc2F)cc1 (stereo not drawn),,"male beagle dog, liver microsomes","20 µM, pH 7.4",relative to: human over dog,elimination rate ratio,8.6 fold
C=C(c1cc(F)c(C(=O)O)c(F)c1)c1cc2c(cc1C)C(C)(C)CCC2(C)C,,"Sprague-Dawley rat, male","oral, 100 mg/kg, 24 h, sesame oil vehicle",,blood triglycerides,436 ± 227 mg/dL
CC[C@H](C)[C@H](NC(=O)[C@H](CC(C)C)NC(=O)[C@H](Cc1c[nH]c2ccccc12)NC(=O)[C@H](C)NC(=O)[C@@H](NC(=O)[C@H](Cc1ccccc1)NC(=O)[C@H](CC(=O)O)NC(=O)[C@H](CCCNC(=N)N)NC(=O)[C@H](C)NC(=O)[C@H](C)NC(=O)[C@H](CC(C)C)NC(=O)[C@H](C)NC(=O)[C@H](CC(=O)O)NC(=O)[C@H](CC(C)C)NC(=O)[C@@H](NC(=O)[C@@H](NC(=O)[C@H](C)NC(=O)[C@H](CC(C)C)NC(=O)[C@H](CCC(=O)O)NC(=O)[C@H](CO)NC(=O)[C@H](CO)NC(=O)[C@H](Cc1ccccc1)NC(=O)[C@@H](NC(=O)CNC(=O)[C@H](CCC(=O)O)NC(=O)CNC(=O)[C@@H](N)Cc1c[nH]cn1)[C@@H](C)O)[C@@H](C)O)[C@@H](C)CC)[C@@H](C)CC)C(=O)N[C@@H](C)C(=O)N[C@H](C(=O)N[C@@H](CCCCN)C(=O)N[C@H](C(=O)N[C@H](C(=O)N[C@@H](CC(=O)O)C(=O)N[C@@H](CCCCN)C(=O)N[C@@H](CCCCN)C(=O)O)[C@@H](C)O)[C@@H](C)CC)[C@@H](C)O,,"healthy human subjects, plasma","subcutaneous, 10 mg once weekly, day 36 after 6 doses, steady state, mean",,terminal half-life,37.7 h
CC(C)[C@H](NC(=O)[C@@H]1CCCN1C(=O)[C@H](CCCNC(=N)N)NC(=O)[C@H](CS)NC(=O)[C@H](Cc1c[nH]c2ccccc12)NC(=O)[C@H](CCCNC(=N)N)NC(=O)[C@@H](Cc1ccccc1)NC(=O)[C@H](Cc1c[nH]cn1)NC(=O)[C@H](CCC(=O)O)NC(=O)[C@H](CS)NC(=O)[C@H](CS)NC(=O)CNC(=O)[C@@H]1CC(=O)N[C@@H](CCCNC(=N)N)C(=O)NCC(=O)N[C@@H](CC(=O)O)C(=O)N[C@H](Cc2ccc(O)cc2)C(=O)N1)C(N)=O [technetium-99m labelled],,"C57 mouse, female, B16/F1 melanoma, spleen","intravenous, 0.037 MBq, 24 h",,tissue uptake,0.89 ± 0.04 %ID/g
Nc1nc(-n2nnc3c2CCC2C(CO)C2CC3)nc2c1ncn2C1OC(CO)C(O)C1O (mixture of isomers),,methanol,,,brightness,0.38 M⁻¹ cm⁻¹
[11CH3]c1ccc2nc(C3CCC3)n(-c3ccc4[nH]ncc4c3)c2n1,extrapolated from mouse biodistribution,human female,,,effective dose,4.9 µSv/MBq
Cc1ccccc1/N=N/c1ccc(/N=N/c2c(O)ccc3ccccc23)c(C)c1,,rat whole blood,"5.0 µg/L, 30 days, -20 °C, long-term storage",,stability deviation,3.9%
CC[C@H](C)[C@H](NC(=O)[C@H](N)Cc1ccc(O)cc1)C(=O)N[C@H]1CSSC[C@@H](C(=O)N(C)[C@H](C(N)=O)[C@@H](C)CC)NC(=O)[C@H](CCCNC(=N)N)NC(=O)[C@H](Cc2c[nH]cn2)NC(=O)[C@H](C)NC(=O)CN(C)C(=O)[C@H](Cc2c[nH]c3ccccc23)NC(=O)[C@H](CC(=O)O)NC(=O)[C@H](CCC(N)=O)NC(=O)[C@H](Cc2cn(C)c3ccccc23)NC(=O)[C@H](C(C)C)NC1=O,UPLC-ESI-MS,cynomolgus monkey plasma,"3.58 µg/mL, 48 h, 4 °C, autosampler after SPE",,recovery,100.8 ± 0.3%
COc1cc(C)c(Cc2ccc(O)cc2)cc1[C@@H]1S[C@H](CO)[C@@H](O)[C@H](O)[C@H]1O,,"Japanese T2DM patients, urine","2.5 mg luseogliflozin, day 1, once daily",relative to: dose,urinary excretion 0-24 h,6.72 ± 0.749%
COC(=O)c1ccc(-c2cn(Cc3cc(Cl)ccc3O[11CH3])nn2)cc1,"PET, one-tissue compartment model","rhesus monkey, brain Midbrain",dose not given,,distribution volume,0.697 mL/cm³
CCC1CNC(CC)CN(C(C(=O)[O-])c2ccc(C(=O)[O-])cc2)C(CC)CN(CC(=O)[O-])C(CC)CN1.[Mn+2] (stereo not drawn),ICP-MS,"BALB/c mice, intestine","intravenous, 0.05 mmol/kg, 5 min",,Mn content,19.7 µg/g
COc1cc(NC(C)=O)c2c(c1O)-c1c(OC)c(OC)cc3c1C(C2)N(C)CC3 (stereo not drawn),,rat kidney homogenate,"0.5 µg/mL, time not given, three freeze-thaw cycles",,remaining compound,101 ± 1.9%
CCCC[C@H](NC(=O)CNC(=O)CNC(=O)CN1CCN(CC(=O)O)CCN(CC(=O)O)CCN(CC(=O)O)CC1)C(=O)N[C@H]1CC(=O)NCCCC[C@@H](C(N)=O)NC(=O)[C@H](Cc2c[nH]c3ccccc23)NC(=O)[C@H](CCCNC(=N)N)NC(=O)[C@@H](Cc2ccccc2)NC(=O)[C@H](Cc2c[nH]cn2)NC1=O [copper-64 labelled],,"female C57 mouse, B16/F1 melanoma, stomach","intravenous, 0.037 MBq, 0.5 h",,tissue uptake,2.83 ± 0.84 %ID/g
O=C(O)/C=C/c1ccc(NC(=O)C2(NC(=O)c3ccc4c(C5CCCCC5)c5n(c4c3)CC(=O)Nc3ccccc3-5)CCCC2)cc1,,rat,"intravenous, 2 mg/kg",,clearance,13 mL/min/kg
CCCC(CCC)NC(=O)c1ccc(OC2OC(C(=O)O)C(O)C(O)C2O)c(O)c1 (stereo not drawn),,"male Sprague-Dawley rats, plasma","oral, 50 mg/kg of parent drug",relative to: 50 over 20 mg/kg dose,Cmax ratio,1.55
N=C(N)NCCC[C@@H]1NC(=O)[C@H](Cc2c[nH]c3ccccc23)NC(=O)[C@@H](CC2CCCCC2)NC(=O)[C@@H]2CCCN2C(=O)[C@@H](NC(=O)CCc2ccccc2)CCCNC1=O,,"C57BL/6J mice, plasma","intraperitoneal, 1 mg/kg",,elimination half-life,0.169 h
Cc1[nH]c(/C=C2\C(=O)Nc3ccc(F)cc32)c(C)c1NC(=O)CCN1CCN(C)CC1,,dog plasma,"80 ng/mL, 24 h in injector after processing, 4 °C",,accuracy deviation,-8.39%
CC(=O)Nc1ncc(CN2CC[C@H](Oc3cccc([18F])n3)C[C@@H]2C)s1,ultrafiltration,"rhesus monkey, plasma",pre-blocked condition,,plasma free fraction,5.36 ± 0.15%
CC(C)(O)c1ncc([S@](N)(=O)=NC(=O)Nc2c3c(cc4c2CCC4)CCC3)s1,,"healthy human, fed","oral, 25 mg twice daily, day 1, tablet formulation, geometric mean",,AUC(0-tau),14100 ng·h/mL
CC(C)c1cnc(-c2cc(Cl)ccc2F)cc1Nc1ccncc1C(=O)NC(CO)CO,,"patients, phase I monotherapy","oral, dose not given, grade 3",,patients with AST increase,0%
CCCC1OC2CC3C4CCC5=CC(=O)C=CC5(C)C4C(O)CC3(C)C2(C(=O)COC(=O)CN)O1 (stereo not drawn),,rat lung homogenate,"200 µg/mL, 37 °C",,time to near-complete hydrolysis,≤ 12 h
NCCCC(=O)OCC(=O)c1c(F)c(F)c(O)c(F)c1F.O=C(O)C(F)(F)F,"photolysis, measured: rearranged acid appearance",unbuffered water,,,quantum yield,0.1
CC(=O)[CH](C(C)=O)[Pt-2]1([S+](C)C)[O]C(C)=CC(C)=[O+]1 (stereo not drawn),measured: platinum,"rat, whole blood","intravenous, dose not given",,clearance,2.6 mL/h
CC(C)CCCC(C)CCCC(C)CCO[C@@H]1O[C@H](CO)[C@@H](O[C@H]2O[C@H](CO)[C@@H](O)[C@H](O)[C@H]2O)[C@H](O)[C@H]1O (stereo partly drawn),dynamic surface tension,,0.0018 mmol/L,,induction time,433 s
CC[N+]1=C(C=CC=CC=C2N(CCCCCC(=O)O)c3ccc4c(S(=O)(=O)[O-])cc(S(=O)(=O)[O-])cc4c3C2(C)C)C(C)(C)c2c1ccc1c(S(=O)(=O)[O-])cc(S(=O)(=O)[O-])cc21.[K+].[K+].[K+],,100% serum,pH 7.4,,quantum yield,21.3%
NC[C@@H](C(=O)Nc1ccc(-c2cn[nH]c2)cc1)c1ccccc1,OECD 405 eye irritation,"New Zealand White rabbit, eye","topical, 0.1%, 25 h (day 2), scale 0 to 3",direction not given,conjunctival redness score,1
CC1=CC(C)=[N+]2C1=Cc1ccc(CCC(=O)N3CCN(C(=O)c4cc(Cc5n[nH]c(=O)c6ccccc56)ccc4F)CC3)n1[B-]2(F)F,ex vivo imaging,"athymic nude NU/J mice, subcutaneous xenograft, U87 tumour","intravenous, 2.5 mg/kg, 90 min",,mean fluorescence,20.5 AU/pixel
